{"data": "Results of several laboratories", "note": "Compare with care: the assays were run in different laboratories. Numbers after ± are the reported error.", "chain of UniProt P55210 (whole entry, looked up)": "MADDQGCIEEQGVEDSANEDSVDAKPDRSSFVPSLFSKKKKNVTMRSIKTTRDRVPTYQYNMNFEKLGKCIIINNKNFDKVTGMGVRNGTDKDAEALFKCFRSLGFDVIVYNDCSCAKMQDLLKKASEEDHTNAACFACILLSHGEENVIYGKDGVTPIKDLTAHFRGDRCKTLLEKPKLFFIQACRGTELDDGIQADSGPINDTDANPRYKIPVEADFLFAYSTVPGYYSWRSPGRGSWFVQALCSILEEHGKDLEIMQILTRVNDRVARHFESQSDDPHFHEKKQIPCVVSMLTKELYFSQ", "chain of UniProt B9VUU3 (whole entry, looked up)": "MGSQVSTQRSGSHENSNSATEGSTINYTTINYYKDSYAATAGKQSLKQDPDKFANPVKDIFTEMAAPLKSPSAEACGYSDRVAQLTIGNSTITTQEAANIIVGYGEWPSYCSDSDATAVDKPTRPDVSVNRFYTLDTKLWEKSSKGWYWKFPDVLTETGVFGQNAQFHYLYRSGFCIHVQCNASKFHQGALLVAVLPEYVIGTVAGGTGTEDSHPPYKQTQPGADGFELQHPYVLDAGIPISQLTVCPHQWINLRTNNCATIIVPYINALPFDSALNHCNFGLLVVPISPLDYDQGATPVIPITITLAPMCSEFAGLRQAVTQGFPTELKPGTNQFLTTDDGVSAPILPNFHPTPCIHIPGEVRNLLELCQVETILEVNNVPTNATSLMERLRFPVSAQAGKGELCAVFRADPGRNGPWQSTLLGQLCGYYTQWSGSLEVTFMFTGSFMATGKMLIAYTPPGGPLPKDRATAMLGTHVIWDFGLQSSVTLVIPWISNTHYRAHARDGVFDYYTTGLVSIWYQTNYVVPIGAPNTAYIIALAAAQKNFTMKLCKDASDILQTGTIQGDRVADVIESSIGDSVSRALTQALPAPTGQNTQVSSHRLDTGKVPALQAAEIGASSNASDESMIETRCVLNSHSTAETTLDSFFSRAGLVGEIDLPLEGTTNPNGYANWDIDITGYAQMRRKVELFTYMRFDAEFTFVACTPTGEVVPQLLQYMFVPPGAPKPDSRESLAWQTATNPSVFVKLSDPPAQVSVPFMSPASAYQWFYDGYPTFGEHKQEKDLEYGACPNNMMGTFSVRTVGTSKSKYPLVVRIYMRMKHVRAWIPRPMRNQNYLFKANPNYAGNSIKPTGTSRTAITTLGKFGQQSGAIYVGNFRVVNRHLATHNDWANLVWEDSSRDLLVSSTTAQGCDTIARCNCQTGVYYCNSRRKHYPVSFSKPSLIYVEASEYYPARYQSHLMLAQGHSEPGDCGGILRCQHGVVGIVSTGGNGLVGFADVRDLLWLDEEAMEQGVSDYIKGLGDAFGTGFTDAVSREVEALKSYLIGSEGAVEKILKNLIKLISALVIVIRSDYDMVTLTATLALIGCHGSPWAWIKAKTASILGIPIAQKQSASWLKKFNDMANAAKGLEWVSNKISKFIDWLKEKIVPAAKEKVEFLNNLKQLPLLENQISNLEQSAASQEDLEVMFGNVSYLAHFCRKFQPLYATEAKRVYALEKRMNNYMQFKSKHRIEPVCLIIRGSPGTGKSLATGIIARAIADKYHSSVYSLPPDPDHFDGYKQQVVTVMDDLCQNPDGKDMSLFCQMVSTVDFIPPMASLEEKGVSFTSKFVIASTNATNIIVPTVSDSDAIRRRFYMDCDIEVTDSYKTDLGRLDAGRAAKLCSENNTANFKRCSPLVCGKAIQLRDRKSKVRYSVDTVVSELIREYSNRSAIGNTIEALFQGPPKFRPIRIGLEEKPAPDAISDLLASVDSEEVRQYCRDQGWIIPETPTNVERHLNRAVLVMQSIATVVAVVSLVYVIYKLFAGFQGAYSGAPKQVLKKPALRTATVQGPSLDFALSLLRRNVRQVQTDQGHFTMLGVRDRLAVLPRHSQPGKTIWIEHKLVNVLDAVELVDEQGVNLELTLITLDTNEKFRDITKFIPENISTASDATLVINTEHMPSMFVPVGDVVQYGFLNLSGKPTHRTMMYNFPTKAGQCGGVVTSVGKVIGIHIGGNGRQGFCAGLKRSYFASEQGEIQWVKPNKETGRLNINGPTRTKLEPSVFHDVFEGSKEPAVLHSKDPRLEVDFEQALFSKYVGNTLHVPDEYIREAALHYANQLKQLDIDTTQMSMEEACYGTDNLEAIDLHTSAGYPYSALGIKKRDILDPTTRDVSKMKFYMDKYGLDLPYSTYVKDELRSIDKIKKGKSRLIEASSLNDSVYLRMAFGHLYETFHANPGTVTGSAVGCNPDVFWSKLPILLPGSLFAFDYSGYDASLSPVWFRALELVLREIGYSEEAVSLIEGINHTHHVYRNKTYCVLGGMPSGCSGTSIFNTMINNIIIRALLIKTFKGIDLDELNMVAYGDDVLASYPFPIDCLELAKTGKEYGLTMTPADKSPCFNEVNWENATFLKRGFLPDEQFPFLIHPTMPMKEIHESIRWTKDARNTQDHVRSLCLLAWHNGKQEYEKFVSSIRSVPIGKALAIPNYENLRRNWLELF", "chain of UniProt Q02768 (whole entry, looked up)": "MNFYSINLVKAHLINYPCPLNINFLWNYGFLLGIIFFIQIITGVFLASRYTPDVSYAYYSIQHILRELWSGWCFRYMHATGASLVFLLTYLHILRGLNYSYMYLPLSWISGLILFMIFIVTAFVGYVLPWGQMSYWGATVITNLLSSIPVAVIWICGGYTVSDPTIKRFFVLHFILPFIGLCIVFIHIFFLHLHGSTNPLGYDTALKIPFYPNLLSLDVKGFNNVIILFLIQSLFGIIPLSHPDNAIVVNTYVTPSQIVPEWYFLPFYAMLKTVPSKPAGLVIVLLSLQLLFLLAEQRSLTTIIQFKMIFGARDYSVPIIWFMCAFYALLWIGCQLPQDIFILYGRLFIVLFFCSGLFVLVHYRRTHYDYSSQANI", "chain of UniProt P05804 (whole entry, looked up)": "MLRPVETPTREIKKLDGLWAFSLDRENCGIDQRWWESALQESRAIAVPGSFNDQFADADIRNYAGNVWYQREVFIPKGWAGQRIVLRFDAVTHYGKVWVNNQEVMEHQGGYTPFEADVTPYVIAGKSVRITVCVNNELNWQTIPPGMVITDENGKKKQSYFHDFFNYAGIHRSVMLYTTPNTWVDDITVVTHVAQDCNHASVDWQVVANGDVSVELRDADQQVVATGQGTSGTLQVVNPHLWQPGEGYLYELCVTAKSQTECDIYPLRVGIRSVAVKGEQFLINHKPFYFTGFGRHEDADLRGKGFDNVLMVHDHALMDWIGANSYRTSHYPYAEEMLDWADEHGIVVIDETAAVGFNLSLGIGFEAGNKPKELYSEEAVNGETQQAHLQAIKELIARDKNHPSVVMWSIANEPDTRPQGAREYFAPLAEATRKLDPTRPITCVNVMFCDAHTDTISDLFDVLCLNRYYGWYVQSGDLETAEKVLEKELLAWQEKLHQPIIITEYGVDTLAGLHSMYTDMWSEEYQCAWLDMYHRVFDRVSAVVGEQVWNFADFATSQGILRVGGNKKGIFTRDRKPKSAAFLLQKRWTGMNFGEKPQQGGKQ", "chain of UniProt P56817 (whole entry, looked up)": "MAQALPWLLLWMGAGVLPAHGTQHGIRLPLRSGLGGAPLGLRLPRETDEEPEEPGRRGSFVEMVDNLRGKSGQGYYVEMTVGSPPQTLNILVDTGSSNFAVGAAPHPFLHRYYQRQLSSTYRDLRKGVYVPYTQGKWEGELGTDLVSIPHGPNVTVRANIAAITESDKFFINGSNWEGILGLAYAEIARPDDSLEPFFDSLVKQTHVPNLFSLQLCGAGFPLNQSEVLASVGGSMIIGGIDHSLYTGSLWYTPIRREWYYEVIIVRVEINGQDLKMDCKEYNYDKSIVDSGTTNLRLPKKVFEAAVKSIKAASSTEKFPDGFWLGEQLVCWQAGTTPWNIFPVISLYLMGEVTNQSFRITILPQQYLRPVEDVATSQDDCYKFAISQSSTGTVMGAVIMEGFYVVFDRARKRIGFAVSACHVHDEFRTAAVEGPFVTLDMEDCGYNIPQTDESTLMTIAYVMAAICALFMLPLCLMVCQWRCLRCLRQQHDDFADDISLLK", "chain of UniProt Q13393 (whole entry, looked up)": "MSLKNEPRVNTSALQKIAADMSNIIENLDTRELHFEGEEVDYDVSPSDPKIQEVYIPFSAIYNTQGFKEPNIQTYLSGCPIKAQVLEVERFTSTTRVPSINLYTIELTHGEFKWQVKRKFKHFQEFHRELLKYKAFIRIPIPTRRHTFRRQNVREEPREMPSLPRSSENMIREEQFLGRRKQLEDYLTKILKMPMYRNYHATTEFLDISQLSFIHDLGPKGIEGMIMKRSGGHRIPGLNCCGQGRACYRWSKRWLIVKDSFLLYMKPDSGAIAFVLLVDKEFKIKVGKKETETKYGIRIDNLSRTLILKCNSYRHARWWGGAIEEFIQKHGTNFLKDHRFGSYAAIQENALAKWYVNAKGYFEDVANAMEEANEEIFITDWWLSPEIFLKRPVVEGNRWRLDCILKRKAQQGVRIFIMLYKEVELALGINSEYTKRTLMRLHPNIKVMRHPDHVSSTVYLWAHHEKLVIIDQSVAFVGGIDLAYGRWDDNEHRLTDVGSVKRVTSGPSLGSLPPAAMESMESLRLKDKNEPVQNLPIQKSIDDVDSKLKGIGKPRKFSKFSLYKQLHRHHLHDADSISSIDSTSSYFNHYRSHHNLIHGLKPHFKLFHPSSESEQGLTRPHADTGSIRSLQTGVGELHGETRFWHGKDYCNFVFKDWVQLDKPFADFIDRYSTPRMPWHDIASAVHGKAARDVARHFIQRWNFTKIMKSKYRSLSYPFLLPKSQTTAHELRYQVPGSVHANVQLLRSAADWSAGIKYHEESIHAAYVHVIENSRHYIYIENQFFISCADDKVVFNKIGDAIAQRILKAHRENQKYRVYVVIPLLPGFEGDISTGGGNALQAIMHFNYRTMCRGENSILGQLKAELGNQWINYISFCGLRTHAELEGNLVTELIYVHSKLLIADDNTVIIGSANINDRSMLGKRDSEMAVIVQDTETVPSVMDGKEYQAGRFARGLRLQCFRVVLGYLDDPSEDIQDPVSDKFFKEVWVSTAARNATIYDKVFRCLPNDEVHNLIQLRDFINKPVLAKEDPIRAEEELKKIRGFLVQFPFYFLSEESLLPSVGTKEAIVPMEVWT"}
{"SMILES": "C/C(=C\\C(=O)N[C@@H](CC(C)C)C(=O)N1C[C@H](O)C[C@H]1C(=O)N[C@H](C)CCC(N)=O)c1ccc(OP(=O)(O)O)cc1", "target": "STAT3 (Homo sapiens, UniProt P40763)", "assay": "phosphopeptide binding, inhibitor, fluorescence polarization", "IC50 [nM]": "166 ± 10"}
{"SMILES": "CC(=O)N[C@@H](Cc1ccccc1)C(=O)N[C@@H](CC(C)C)C(=O)N[C@H](C(=O)N[C@@H](CC(=O)O)C(=O)CCl)[C@@H](C)O", "target": "Caspase-7 (CASP7, Homo sapiens, UniProt P55210)", "assay": "enzyme activity, inhibitor, fluorescence", "IC50 [nM]": 53500}
{"SMILES": "CC(C)C[C@@H](/C=C/S(C)(=O)=O)NC(=O)[C@H](CC(C)C)NC(=O)[C@@H](NC(=O)N[C@H](C(=O)NCc1ccccc1)C(C)C)C(C)C", "target": "rabbit 26S proteasome β1", "assay": "caspase-like activity, inhibitor, fluorogenic substrate", "system": "purified proteasome", "conditions": "30 min, 37 °C, added: fluorogenic caspase-like substrate", "IC50 [nM]": 18000}
{"SMILES": "CN(C)CCCOc1ccc(C2Sc3ccccc3NC3=C2C(=O)c2ccccc23)cc1 (racemic)", "target": "MT-CYB, bc1 complex (Plasmodium falciparum, UniProt Q02768)", "assay": "enzyme activity, inhibitor", "system": "purified mitochondrial fractions", "IC50 [nM]": "1080 ± 84"}
{"SMILES": "CNCP(=O)(O)O", "target": "Urease subunit alpha (Sporosarcina pasteurii, UniProt P41020)", "assay": "enzyme activity, inhibitor, indophenol colorimetric", "conditions": "20 min, pH 7.0, 37 °C, added: 50 mM urea", "IC50 [nM]": "228000 ± 15600"}
{"SMILES": "O=C1NC(=S)NC(=O)C1=Cc1ccc(-c2cccc([N+](=O)[O-])c2)o1", "target": "BRAF (Homo sapiens, UniProt P15056, V600E)", "assay": "enzyme activity, inhibitor, ELISA", "IC50 [nM]": 2090}
{"SMILES": "c1cc2c(s1)CCOC21CCN(Cc2ccc3c(c2)OCCO3)CC1", "target": "Cytochrome P450 3A4 (CYP3A4, Homo sapiens, UniProt P08684)", "assay": "enzyme activity, inhibitor", "conditions": "added: VR substrate", "IC50 [nM]": "> 50000"}
{"SMILES": "CSCC[C@H](NC(=O)CNC(=O)[C@H](CCCCN)NC(=O)[C@H](CC(C)C)NC(=O)[C@@H]1CCCN1C(=O)[C@H](CO)NC(=O)[C@H](Cc1c[nH]cn1)NC(=O)[C@H](Cc1c[nH]c2ccccc12)NC(=O)[C@H](CCCNC(=N)N)NC(=O)[C@H](CC(C)C)NC(=O)[C@H](CCCNC(=N)N)NC(=O)[C@H](Cc1c[nH]c2ccccc12)NC(=O)[C@H](CS)NC(=O)CN1CCN(CC(=O)O)CCN(CC(=O)O)CCN(CC(=O)O)CC1)C(=O)O [copper-64 labelled]", "target": "PROM1 (Homo sapiens, UniProt O43490)", "assay": "binding, saturation binding", "system": "Huh-7", "IC50 [nM]": 52.5}
{"SMILES": "CC(C)C[C@H](NC(=O)[C@H](CO)NC(=O)[C@H](Cc1ccc(O)cc1)NC(=O)CNC(=O)[C@H](CCCNC(=N)N)NC(=O)[C@H](Cc1ccc(O)cc1)NC(=O)[C@@H](N)CC(N)=O)C(=O)NCC(=O)N[C@@H](CC(N)=O)C(N)=O", "target": "MHC class II I-A g7 (Mus musculus, UniProt P04228+Q31135)", "assay": "peptide binding, competitor, competition ELISA", "conditions": "at least 24 h, pH 7.0, room temperature, added: biotinylated HEL 10-23 200 nM", "IC50 [nM]": "> 50000"}
{"SMILES": "N[C@H](C(=O)N1CCCC1)C1CCN(c2nccc3c(-c4ncc(Cl)cc4Cl)cccc23)CC1", "target": "PADI4 (Homo sapiens, UniProt Q9UM07)", "assay": "enzyme activity, fluorescence quenching", "conditions": "added: Ca2+ 0.4 mM", "IC50 [nM]": 42.7}
{"SMILES": "O=C(NCCN1CCC2(CC1)C(=O)NCN2Cc1ccccc1F)c1ccc2ccccc2c1", "target": "Phospholipase D1 (Homo sapiens, UniProt Q13393)", "assay": "enzyme activity, inhibitor", "IC50 [nM]": 4590}
{"SMILES": "O=C(/C=C/c1ccc(Cl)cc1)c1ccc(N2CCNCC2)cc1", "target": "Beta-secretase 1 (BACE1, Homo sapiens, UniProt P56817)", "assay": "enzyme activity, inhibitor, fluorescence", "conditions": "with preincubation", "IC50 [nM]": 9760}
{"SMILES": "CC(C)C[C@H](NC(=O)OCc1ccccc1)C(=O)N[C@@H](C[C@@H]1CCNC1=O)C(O)S(=O)(=O)O (some centres unmarked)", "target": "Genome polyprotein, 3C protease (Human enterovirus 71, UniProt B9VUU3)", "assay": "protease activity, inhibitor, FRET", "system": "Enterovirus A71", "conditions": "DTT 4 mM", "IC50 [nM]": 80}
{"SMILES": "C1CCc2c(c(N3CCOCC3)nc3sc4c(N5CCCNCC5)nnnc4c23)C1", "target": "Beta-glucuronidase (uidA, Escherichia coli, UniProt P05804)", "assay": "enzyme activity, inhibitor", "IC50 [nM]": 1200}
{"note": "Excerpt of the above:"}
{"SMILES": "c1cc2c(s1)CCOC21CCN(Cc2ccc3c(c2)OCCO3)CC1", "target": "Cytochrome P450 3A4 (CYP3A4, Homo sapiens, UniProt P08684)", "assay": "enzyme activity, inhibitor", "conditions": "added: VR substrate", "IC50 [nM]": "> 50000"}
